Results of several laboratories.
Every numbered part comes from another study and shows a few of its results, in no order.

Set 1
Target: PABPC1L2, full length, GST fusion (mouse, UniProt A0ABA7IW68)
Method: RNAcompete
Form: RNA
Matrix: in vitro
Tested at: 20 nM
Notes: 7-mer, probes averaged, single round
Reference: mean of 7-mers
Direction: higher = stronger binding
Quantity: 7-mer Z-score
Residues (chain): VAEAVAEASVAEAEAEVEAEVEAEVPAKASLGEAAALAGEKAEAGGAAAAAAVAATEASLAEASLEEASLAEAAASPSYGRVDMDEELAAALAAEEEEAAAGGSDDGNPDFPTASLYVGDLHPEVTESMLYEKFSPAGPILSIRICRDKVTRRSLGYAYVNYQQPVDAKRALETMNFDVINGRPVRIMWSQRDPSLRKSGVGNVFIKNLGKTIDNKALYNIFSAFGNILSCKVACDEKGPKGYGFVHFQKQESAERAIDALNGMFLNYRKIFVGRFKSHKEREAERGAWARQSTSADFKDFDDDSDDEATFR
UUUGCAA: -0.0681
UGCUAUA: -0.146
GAGGCUU: -0.126
UGUUUAC: -0.458

Set 2
Target: Interferon regulatory factor 7, full length, phosphomimetic (IRF7, Homo sapiens, UniProt Q92985, residues 1-503, S101K/S471D/S472D/S475D/S476D/S477D/S483D/S484D/S487D)
Method: protein-binding microarray
Form: double-stranded DNA, one strand shown
Matrix: in vitro
Tested at: 250 nM
Notes: 60-bp whole probe
Added: salmon DNA 0.4 mg/ml
Reference: random background probes
Direction: higher = stronger binding
Quantity: log fluorescence
Shared flanks, not repeated: GCCTAGCAC … GTCTTGATTCGCTTGACGCTGCTG
Construct (chain): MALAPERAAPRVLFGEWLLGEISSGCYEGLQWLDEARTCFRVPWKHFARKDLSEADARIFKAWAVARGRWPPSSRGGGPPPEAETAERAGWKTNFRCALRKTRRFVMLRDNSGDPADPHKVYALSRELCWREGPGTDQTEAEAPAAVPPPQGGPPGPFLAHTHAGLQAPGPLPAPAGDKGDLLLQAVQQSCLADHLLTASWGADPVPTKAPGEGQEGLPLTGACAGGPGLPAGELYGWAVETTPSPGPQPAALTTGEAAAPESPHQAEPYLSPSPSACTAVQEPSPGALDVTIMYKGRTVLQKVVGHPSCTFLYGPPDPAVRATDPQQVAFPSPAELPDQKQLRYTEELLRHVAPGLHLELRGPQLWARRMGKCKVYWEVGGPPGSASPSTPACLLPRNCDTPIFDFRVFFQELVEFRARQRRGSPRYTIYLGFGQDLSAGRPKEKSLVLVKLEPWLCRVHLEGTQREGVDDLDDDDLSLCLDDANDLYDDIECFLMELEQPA
AACGATATCGGGACTGGAGACGTGCTA: -0.238 z-score
GACGATCTCAGTTTCCAGACGTGCTAG: 0.8 z-score
GACGGTATCTGGTATCGGGACGTGCTA: -0.107 z-score
GACGATCTCAGTATCGAAACGTGCTAG: 0.331 z-score
TTAGGATTCCTTTCCCTTTAGTGCTAG: 1.86 z-score

Set 3
Target: Histone acetyltransferase KAT6A, winged helix 2, GST fusion (KAT6A, Homo sapiens, UniProt Q92794, residues 85-181)
Method: protein binding microarray
Form: double-stranded DNA, one strand shown
Matrix: in vitro
Tested at: not given
Notes: 8-mer, flanks averaged, mean of 2 arrays, mostly near background
Reference: not given
Direction: higher = stronger binding
Quantity: E-score
Construct (chain): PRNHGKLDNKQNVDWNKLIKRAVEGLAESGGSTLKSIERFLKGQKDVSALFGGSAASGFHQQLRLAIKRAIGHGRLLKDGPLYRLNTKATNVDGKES
CTCATAAA: 0.0216
TCAATTGA: 0.0724
CAGCACAC: -0.00962
GTTTAAGA: -0.115
AGCTAGAA: -0.0111
GCTGGGCC: 0.0506

Mixed results
PhoQ, residues 284 288 289 292 302 303 SLKLQV — fold induction (PhoP, residues 12 14 15 18 19 LHSVW (Escherichia coli, UniProt P23836); Sort-seq, refers to: YFP reporter; E. coli; PhoQ-PhoP variant library, added: 10 µM Mg2+; reference: high Mg2+ state, higher = stronger signaling): 3.04

Repeated from above (set 3):
AGCTAGAA: -0.0111
GCTGGGCC: 0.0506
